Assay results gathered from unrelated publications.
Parts stem from different laboratories: compare values within a part only.

Set 1
Target: Interferon regulatory factor 7, full length, phosphomimetic (IRF7, Homo sapiens, UniProt Q92985, residues 1-503, S471D/S472D/S475D/S476D/S477D/S483D/S484D/S487D)
UniProt Q92985, sequence (whole entry, unmodified, looked up): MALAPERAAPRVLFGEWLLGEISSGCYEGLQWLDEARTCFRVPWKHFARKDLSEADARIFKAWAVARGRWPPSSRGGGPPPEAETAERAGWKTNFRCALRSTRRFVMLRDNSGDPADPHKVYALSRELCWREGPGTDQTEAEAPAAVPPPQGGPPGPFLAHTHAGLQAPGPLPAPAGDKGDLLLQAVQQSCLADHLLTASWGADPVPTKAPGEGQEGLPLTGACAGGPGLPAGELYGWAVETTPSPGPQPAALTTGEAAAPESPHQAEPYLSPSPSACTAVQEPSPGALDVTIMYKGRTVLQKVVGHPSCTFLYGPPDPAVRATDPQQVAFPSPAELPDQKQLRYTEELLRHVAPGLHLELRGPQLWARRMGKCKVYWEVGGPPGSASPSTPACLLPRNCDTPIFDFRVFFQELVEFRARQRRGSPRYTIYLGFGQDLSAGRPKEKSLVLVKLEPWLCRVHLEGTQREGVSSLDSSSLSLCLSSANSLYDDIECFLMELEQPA
Method: protein-binding microarray
Molecule type: double-stranded DNA, one strand shown
Sample: in vitro
Concentration: 2200 nM top
Notes: 60-bp whole probe
Added: salmon DNA 0.4 mg/ml
Baseline: random background probes
Reading: higher = stronger binding
Shared flanks, not repeated: GCCTAGCAC … GTCTTGATTCGCTTGACGCTGCTG
| Oligonucleotide | fitted relative affinity [z-score] |
| --- | --- |
| TTAGGTCTCGGTCTCGCTTAGTGCTAG | 0.562 |
| GACGGTCACGGTATCGGGACGTGCTAG | -0.844 |
| TTAGGTCTCCTTCTCCATTAGTGCTAG | 1.02 |
| TTAGGACTGTGGACTGGGTTAGTGCTA | -0.892 |
| AACGGACTGGACTATCGGGACGTGCTA | -0.786 |
| GACGGTCTCCGTTTCGGGACGTGCTAG | 1.77 |
| GACGGACTGCTTCTGCTGACGTGCTAG | -0.236 |
| ATAGGACTGCTTATCCTTTAGTGCTAG | 0.564 |
| GCACATGAGCCAAGCCTGCCGTGCTAG | 0.175 |
| TTAGGTTTCGGGTTTCCGTTAGTGCTA | 9.18 |
| GAATGTCCTCCTCTCTCTTTGTGCTAG | 1.6 |
| TTAGGTATAGGGTATCGGTTAGTGCTA | -0.251 |
| TTAGATTTCAGTCGCGATTAGTGCTAG | 0.335 |
| TTAGAAATCGGGTTTCGATTAGTGCTA | 2.2 |
| GACGGACTGGCCTATCGGGACGTGCTA | -0.852 |
| GACGATATCAGTTTCGAGTCGTGCTAG | 6.21 |
| TTAGATCTCACTATCGATTAGTGCTAG | 0.493 |
| GACGGGTCCCTTTTCCTGACGTGCTAG | 0.713 |
| GACGAACTGAGTTTCGAGAAGTGCTAG | 0.663 |

Set 2
Target: RNA binding protein fox-1 homolog 2, RRM domain, GST-SBP tag (RBFOX2, Homo sapiens, UniProt O43251-10, residues 100-194)
Method: RNA Bind-n-Seq
Molecule type: RNA
Sample: in vitro
Concentration: 365 nM
Notes: natural RNA segment, single round, ends assumed
Baseline: no-protein control
Reading: higher = stronger binding
Shared flanks, not repeated: GGGAGUUCUACAGUCCGACGAUC … UGGAAUUCUCGGGUGCCAA
| Oligonucleotide | RBNS enrichment (R) |
| --- | --- |
| UGGCCGUCUGUUCACAAGCCCAAGGUGCUAGAACUAGCUUAGGAGACAUGCAGGCCACAGGGCUUCUAGGCAGGGAAAGGGCACACACCCUAGGUCAGCGUGCAGAGCAG | 0.743 |
| AAGACGCCAAUCGCCCGUACUGAGCGCCGGCGGGAGCGUCCCCCGGGGGAGACCAGGACUCGCACAGGGCAGGAUGCUGAACGGGCUACAUUAAAAAACAAACCUCUCUC | 0.423 |
| UUGAUUUAUUUUACACCUCUGCUUAGGCCUCCUGCCUGGAGAUGAGCCAUGCUGUUGUGAGAUUUUUAGCUGCUGGAAGGCUAGGUAAUCACUGGGUAGUAUCACACAGG | 0.534 |
| CCCCACUUCCUUUCACUCACGCAUGGCCACAGCAUCUCUCUCUAGUAGCCGAGAGUGUCAUUCUCUCCACCCUUUCUGUGUGUACCAGAGCCACACCCAUGCCAUUACUG | 1.58 |
| AAGGAUGAAACUUGCCUGUUGGGGCGGAGCUGUCGCUCCUGAGGGGCCCCACCUUUACAUCCCAUCCCCACCUCACCCCUGCCCCAAUUAAGCCUUCCAAGUCCCCAGCC | 0.724 |
| UAAUGCUUUGUUAAAGAACCCCCUUUCCGUGCCACUGGUGAAUAGGGAUUGAUGAAUGGGAAGAGUUGAGUCAGACCAGUAAGCCCGUCCUGGGUUCCUUGAACAUGUUC | 0.614 |
| UAAGUUAACAAGUCUAUAUCAGGUGCAGCUGGCUUUGAUUAAAGGCCAUUUUUAAAACUUAAAAACUCAACACCUCACAGAUUAUAAUAGAAAAAGAAAUGGCCUCAGUU | 0.432 |
| CAAAAACUAUAGAGCCUGUCAGCACCAAAGCUGACAGAAGUUAUACCUUACUCCUUUCCUUUCCCCUGAACAAACCUGCUAAUCCCACUAAUUCAGGAAUUUGAGUAGAG | 0.48 |

Set 3
Target: UBE2V1 UBC core domain (UniProt Q13404)
Method: yeast two-hybrid
Sample: yeast
Notes: mostly zero background
Baseline: not given
Reading: higher = stronger interaction
B1: UBE4B RING domain (UniProt O95155); chain KNARAEIDYSDAPDEFRDPLMDTLMTDPVRLPSGTIMDRSIILRHLLNSPTDPFNRQTLTESMLEPVPELKEQIQAWMREKQNSDH
B2: PJA2 RING domain (UniProt O43164); chain DHTAIGQEQCCPICCSEYIKDDIATELPCHHFFHKPCVSIWLQKSGTCPVCRRHFPPAVIEA
B3: NHLRC1 RING domain (UniProt Q6VVB1); chain MREAEISLLECKVCFEKFGHRQQRRPRNLSCGHVVCLACVAALAHPRTLALECPFCRRACRGCDTSD
B4: RFPL3 RING domain (UniProt O75679); chain MAALFQEASSCPVCSDYLEKPMSLECGCTVCLKCINSLQKEPHGEDLLCCCCSMVSQRNKIRP
B5: TRIM68 RING domain (UniProt Q6AZZ1); chain LVEAIVEEVACPICMTFLREPMSIDCGHSFCHSCLSGLWEIPGESQNWGYTCPLCRAPVQPRNLRP
Construct (chain): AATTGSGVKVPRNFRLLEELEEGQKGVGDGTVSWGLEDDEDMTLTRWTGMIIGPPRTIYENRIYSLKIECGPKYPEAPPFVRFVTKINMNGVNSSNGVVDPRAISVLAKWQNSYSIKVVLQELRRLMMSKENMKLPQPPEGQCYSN
| Molecule | lacZ reporter activity |
| --- | --- |
| EIKDYKARLTCPCCNMRKKDAVLTKCFHVFCFECVKTRYDTRQRKCPKCNAAFGANDFHR (RNF20 RING domain (UniProt Q5VTR2)) | 0 |
| B1 (UBE4B RING domain) | 0 |
| AAQLLEEKLTCAICLGLYQDPVTLPCGHNFCGACIRDWWDRCGKACPECREPFPDGAELR (TRIM65 RING domain (UniProt Q6PJ69)) | 0 |
| B2 (PJA2 RING domain) | 0 |
| VPADASPDSKCPICLDRFDNVSYLDRCLHKFCFRCVQEWSKNKAECPLCKQPFDSIFHSV (TOPORS RING domain (UniProt Q9NS56)) | 0 |
| B3 (NHLRC1 RING domain) | 0 |
| B4 (RFPL3 RING domain) | 0 |
| B5 (TRIM68 RING domain) | 0 |

Set 4
Target: Ras GTPase-activating protein-binding protein 1, C-terminal RGG region (G3BP1, Homo sapiens, UniProt Q13283)
UniProt Q13283, sequence (whole entry, looked up): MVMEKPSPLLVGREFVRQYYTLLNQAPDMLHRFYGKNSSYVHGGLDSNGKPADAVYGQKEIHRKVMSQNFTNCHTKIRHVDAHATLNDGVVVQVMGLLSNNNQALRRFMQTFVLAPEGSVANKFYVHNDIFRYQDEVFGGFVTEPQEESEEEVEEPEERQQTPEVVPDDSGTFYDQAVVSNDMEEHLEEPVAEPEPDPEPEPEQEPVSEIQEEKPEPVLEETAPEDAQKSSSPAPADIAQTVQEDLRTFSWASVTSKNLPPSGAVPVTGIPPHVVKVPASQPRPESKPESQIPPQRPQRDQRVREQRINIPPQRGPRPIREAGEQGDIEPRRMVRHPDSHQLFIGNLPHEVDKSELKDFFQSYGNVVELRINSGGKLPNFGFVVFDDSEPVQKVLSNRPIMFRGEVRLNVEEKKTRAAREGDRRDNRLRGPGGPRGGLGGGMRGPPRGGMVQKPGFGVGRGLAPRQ
Method: RNA Bind-n-Seq
Molecule type: RNA
Sample: in vitro
Concentration: 1 µM
Notes: whole 134-nt RNA, ends assumed
Added: 150 mM KCl
Baseline: input library
Reading: higher = stronger binding
Shared flanks, not repeated: GGGAGUUCUACAGUCCGACGAUC … UGGAAUUCUCGGGUGUCAAGG
| Oligonucleotide | log2 enrichment |
| --- | --- |
| GUCCUGUGCUACACAUCGUAUGUACCGAAUCGGGAAAAAGGGGAAAAAGGAAAAAGGGGAAAGUAUUAUGUUACGCCGUUCGGAUCUGCA | -1.06 |
| UUUUCAAGGGCCGCUUGAAGAUGCCAUUGAAGAUGAGGAAGAAGAAUGUCCAUCAGAGGAAACAGACAUCAUCUCCAAAGGAGACUUUCC | -1.94 |
| UCCUUUUUUUUUUUCUUUGAAUGUAUUUAUUUCUUGUAGUCUACUGGUGCUGUUGUGACGGAGAGCCAGACGUACAAAAACCGAGCUGGU | -0.674 |
| UCCUGUGCUACACAUCGUAUGUACCGAAUCGGGUUUUUUGGUUUUUUGGUUUUUUGGGGAAAGUAUUAUGUUACGCCGUUCGGAUCUGCA | -1.14 |
| AAAAUAAGCCUAAGAAAGAAUUAAUUAAAGUUCUGAUUCAGAGGGGAUAUGAUUCGGAUCCUGUGAAGGCCUGGAAAGAAGCCCAGCAAA | -1.46 |
| CUGUGCUACACAUCGUAUGUACCGAAUCGGGGAAAAAAAGGGGAAAGGGGUUUUUUUGGGGAAAGUAUUAUGUUACGCCGUUCGGAUCUG | 0.444 |
| UAACUUUAGAGGAGGAUCUGAUGGAUAUGGCAGUGGACGUGGAUUUGGGGAUGGCCAUAAUGGGUAUGGAGGAGGACCUGGAGGUGGCAA | -0.816 |
| CUGUGCUACACAUCGUAUGUACCGAAUCAAACCCCCCCAAAUUUUUUUAAACCCCCCCAAAAAAGUAUUAUGUUACGCCGUUCGGAUCUG | 0.975 |
| AGUCCUGUGCUACACAUCGUAUGUACCGAAUCGGGUUUUGGGGUUUUGGGGUUUUGGGAAAGUAUUAUGUUACGCCGUUCGGAUCUGCAC | 0.702 |

Repeated from above (set 1):
| Oligonucleotide | fitted relative affinity [z-score] |
| --- | --- |
| GACGGACTGCTTCTGCTGACGTGCTAG | -0.236 |
| ATAGGACTGCTTATCCTTTAGTGCTAG | 0.564 |
| GCACATGAGCCAAGCCTGCCGTGCTAG | 0.175 |
| TTAGGTTTCGGGTTTCCGTTAGTGCTA | 9.18 |
| GAATGTCCTCCTCTCTCTTTGTGCTAG | 1.6 |
| TTAGGTATAGGGTATCGGTTAGTGCTA | -0.251 |
| TTAGATTTCAGTCGCGATTAGTGCTAG | 0.335 |
